# Measurements collected from several papers.
# Protocols differ between the studies behind these lines. Several values in a cell are separate wells, animals, samples, runs or records. ± gives the spread as reported.
Structure (SMILES),organism,test,system,setting,scale,endpoint,value
CCOCCOc1ccnc2ccc(-c3ccc(S(=O)(=O)N4CCOCC4)cc3)cc12,Plasmodium falciparum,"parasite growth, SYBR Green",W2,,,EC50,5100 nM
CC1(C)c2nc(-c3ccc(F)cc3)c(Nc3ccc(F)cc3)n2CCN1C(=O)CN,Plasmodium berghei,"parasite growth, luciferase bioluminescence",HepG2 spheroids infected,24 h,,EC20,17.9 nM
Cc1cc(OC(C)C)ccc1C(=O)C(C)(C)NC(=O)c1sccc1C,Stromatinia cepivora,mycelial growth,PSA medium,20 °C,,EC50,0.01 µg/mL
O=C1NC(=O)C(c2ccccc2)(c2ccccc2)N1,Drosophila melanogaster,fluorescence,,"liquid food, 40 µg/mL, first instar larvae",baseline: solvent,fluorescein ingestion,21%
CNCC(=O)N1CCC[C@H](C(=O)NCc2nc(-c3ccccc3)cs2)C1,Plasmodium falciparum,SYBR Green growth,"asexual blood-stage parasites, 3D7",72 h,,EC50,> 5000 nM
COc1ccc(CNc2nc(-c3ccc(C(=O)O)nc3)nc3sc4c(c23)CCCC4)cc1Cl,Plasmodium falciparum,nanoluciferase readout,3D7 Hyp1-Nluc,"2 µM, 72 h",baseline: DMSO,parasite growth,25.3%
CC(C)n1ncc2c(C(=O)NCC3(C)CNC3)cc(C3CC3)nc21,coxsackievirus A16,,RD,0.015 µM,,cell protection,-0.665% and 0.665%
CNS(=O)(=O)c1ccccc1Nc1nc(Nc2ccc(N3CCOCC3)cc2OC)ncc1Br,Plasmodium falciparum,"schizont egress, Nluc release",Hyp1-Nluc,"10 x growth EC50, 4 h",,inhibition,87.1%
Nc1nc(-c2ccccc2)nc2[nH]nc(Nc3ccc(C(F)(F)F)cc3)c12,coxsackievirus B3,,"31-1-93, NMRI mice, CVB3 chronic myocarditis","oral, 100 mg/kg twice daily, day 10, dosed days 1 to 7, score scale 0 to 7",direction not given,clinical score,0.22
COC(=O)[C@@H](NCc1cc2ccccc2nc1OCc1ccccc1)C(C)C,Pseudomonas aeruginosa,,,"4 µg/mL, together with: pentamidine 100 µM",baseline: control,growth,97.8%
C[C@](C#N)(COc1cc(C#N)ccc1C(F)(F)F)NC(=O)c1ccc(SC(F)(F)F)cc1,Haemonchus contortus,,,7 days,baseline: IC50 MCF-10A over IC50 L4 development,selectivity ratio,76.4
C[C@@H]1[C@H](O)[C@@H](C)/C=C/C=C/C=C/C=C/C=C/C=C/C=C/[C@H](O[C@@H]2O[C@H](C)[C@@H](O)[C@H](N)[C@@H]2O)C[C@@H]2O[C@](O)(C[C@@H](O)C[C@@H](O)[C@H](O)CC[C@@H](O)C[C@@H](O)CC(=O)O[C@H]1C)C[C@H](O)[C@H]2C(=O)O,Leishmania major,,promastigotes,"24 h, unit not given",baseline: compound minus Glu,anti-leishmanial effect difference,18.6
CC(=O)O[C@@H]1C[C@H]2C(C)(C)C(=O)C=C[C@]2(C)[C@H]2CC[C@@]3(C)[C@H](c4ccoc4)OC(=O)[C@H]4O[C@]43[C@@]21C,Drosophila melanogaster,fluorescence,,"liquid food, 40 µg/mL, first instar larvae",baseline: solvent,fluorescein ingestion,-24.2%
COCC(=O)NCCC(=O)NCc1nc(-c2ccccc2)cs1,Plasmodium falciparum,SYBR Green growth,"asexual blood-stage parasites, 3D7",72 h,,EC50,> 5000 nM
C[C@H]1[C@H](OC(=O)CCC(=O)O)O[C@@H]2O[C@@]3(C)CC[C@H]4[C@H](C)CC[C@@H]1[C@@]24OO3,Plasmodium berghei,,"NK65/GFP, mouse","subcutaneous, 22 µmol/kg daily for four days",,cure rate,50%
CC1CCC(C(C)C)C(OC2=C(Cl)C(=O)c3ccccc3C2=O)C1 (stereo not shown),Serratia marcescens,,MTCC 4301,10 µg/mL,,zone of inhibition,22 mm
CO[C@H]1/C=C/O[C@@]2(C)Oc3c(C)c(O)c4c(c3C2=O)C2=NC3(CCN(CC(C)C)CC3)NC2=C(NC(=O)/C(C)=C\C=C\[C@H](C)[C@H](O)[C@@H](C)[C@@H](O)[C@@H](C)[C@H](OC(C)=O)[C@@H]1C)C4=O,Mycobacteroides abscessus,bacterial growth,subsp. abscessus K21 clinical isolate,,,IC90,7800 nM
COc1cc2c(cc1OC)[C@@H]1C(=O)c3ccc4c(c3O[C@@H]1CO2)C=CC(C)(C)O4,human adenovirus C5,reporter virus,A549,"concentration not given, 72 h, highest dose, monotreatment",baseline: untreated control,viral progeny production,30%
Oc1cc2c(cc1O)C1c3ccc(O)c(O)c3OCC1(O)C2 (stereo not shown),Drosophila melanogaster,fluorescence,,"liquid food, 40 µg/mL, first instar larvae",baseline: solvent,fluorescein ingestion,-28.2%
COc1cc(OC)c(CCNC(=O)c2cn3cc(-c4cc(OCC(=O)O)ccc4OC)nc3s2)c(OC)c1,Plasmodium falciparum,invasion and early ring development,Hyp1-Nluc,"10 x growth EC50, 4 h",,inhibition,97.5%
C#CCOC(=O)ON=C1C=CC(=C(C#N)c2ccccc2)C=C1,Clavispora lusitaniae,broth dilution,ATCC 34449,"48 h, 37 °C",,MFC,64 µg/mL
CNC(=O)c1cc(Oc2ccc(NC(=O)Nc3cccc(F)c3)cc2)ccn1,Drosophila melanogaster,,ptc>dRet M955T,"in food, concentration not given, 25 °C",,rescue of viability,no effect
COCC(=O)N1CCC(C(=O)NCc2nc(-c3ccccc3)cs2)CC1,Plasmodium falciparum,SYBR Green growth,"asexual blood-stage parasites, 3D7",72 h,,EC50,> 5000 nM
C[n+]1cc2c3c(ccc2c2ccc4cc5c(cc4c21)OCO5)OCO3,Drosophila melanogaster,fluorescence,,"liquid food, 40 µg/mL, first instar larvae",baseline: solvent,fluorescein ingestion,-15.1%
O=C(NCc1nc(-c2ccc(C(F)(F)F)cc2)cs1)[C@H]1CCCN(C(=O)COC2CCNCC2)C1,Plasmodium falciparum,"parasite growth, SYBR Green","3D7, asexual blood stage",72 h,,EC50,39 ± 9.5 nM
O=C(Nc1ccc(CNc2ncnc3ccccc23)cc1)c1ccc(Cl)c(F)c1,Plasmodium falciparum,LDH readout,3D7 Hyp1-Nluc,"20 µM, 72 h",baseline: DMSO,parasite growth,16.5%
CC(=O)NC[C@H]1CN(c2ccc(N3CCOCC3)c(F)c2)C(=O)O1,Staphylococcus epidermidis,broth microdilution,methicillin-resistant isolates,,,MIC50,0.5 µg/mL
O=C(NCc1nc(-c2ccccc2)cs1)[C@H]1CCCN(C(=O)COCC(F)F)C1,Plasmodium falciparum,SYBR Green growth,"asexual blood-stage parasites, 3D7",72 h,,EC50,32 ± 4.4 nM
COC(=O)[C@H](Cc1ccc(O)cc1)NCc1cc2ccccc2nc1SC,Pseudomonas aeruginosa,,,"4 µg/mL, together with: pentamidine 50 µM",baseline: control,growth,99.3%
CCn1nccc1Nc1ccnc2ccc(-c3ccc(S(=O)(=O)N4CCOCC4)cc3)cc12,Plasmodium falciparum,"parasite growth, SYBR Green",TM91C235,,,EC50,4100 nM
N[C@H](C(=O)O)[C@H]1C[C@@H]1C(=O)O,Drosophila melanogaster,liquid food feeding,,"40 µg/mL, first instar larvae",baseline: solvent,fluorescein ingestion,17.7%
COCC(=O)N1CCC[C@H](C(=O)NCc2nc(-c3ccc(-c4ccccc4)cc3)cs2)C1,Plasmodium falciparum,SYBR Green growth,"asexual blood-stage parasites, 3D7",72 h,,EC50,11 ± 2.1 nM
CC/N=C(\c1ccc(OC)c(OC)c1)N1CCCc2cc(C3=NNC(=O)SC3C)ccc21 (stereo not shown),Plasmodium falciparum,"schizont egress, Nluc release",Hyp1-Nluc,"10 x growth EC50, 4 h",,inhibition,79.7%
COCC(=O)N1CCC[C@H](C(=O)NCc2nc(-c3ccccc3OC)cs2)C1,Plasmodium falciparum,SYBR Green growth,"asexual blood-stage parasites, 3D7",72 h,,EC50,> 5000 nM
N=C(N)c1ccc(OCc2cc(COc3ccc(C(=N)N)cc3)cc(-c3ccccc3)c2)cc1,Escherichia coli,checkerboard,BW25113,"concentration not given, lowest-FICI combination, together with: erythromycin",,MIC of compound in combination,6.25 µg/mL
NCCOCC(=O)N1CCC[C@H](C(=O)NCc2nc(-c3ccc(C4CC4)cc3)cs2)C1,Plasmodium falciparum,SYBR Green growth,"asexual blood-stage parasites, 3D7",72 h,,EC50,20 ± 1.5 nM
C=CC(=O)ON=C1C=CC(=C(C#N)c2ccccc2)C=C1,Clavispora lusitaniae,broth dilution,ATCC 34449,"48 h, 37 °C",,MFC,64 µg/mL
